Measured values of several laboratories.
Lines come from different studies, so protocols differ. Numbers after ± are the reported error. The star is where a group is joined.
OPRD1: Delta-type opioid receptor (OPRD1, Homo sapiens, UniProt P41143)
Sequence of UniProt P41143 (whole entry, looked up): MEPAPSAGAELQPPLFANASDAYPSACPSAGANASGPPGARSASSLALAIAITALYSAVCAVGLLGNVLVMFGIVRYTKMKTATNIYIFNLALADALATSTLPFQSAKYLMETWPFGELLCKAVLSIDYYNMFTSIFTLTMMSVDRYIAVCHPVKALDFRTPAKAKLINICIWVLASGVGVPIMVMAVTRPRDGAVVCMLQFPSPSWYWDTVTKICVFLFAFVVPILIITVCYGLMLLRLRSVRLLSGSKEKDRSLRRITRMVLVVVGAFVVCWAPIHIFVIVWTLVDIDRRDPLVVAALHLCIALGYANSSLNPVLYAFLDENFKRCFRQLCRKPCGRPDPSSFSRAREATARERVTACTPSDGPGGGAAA
CNR1: Cannabinoid receptor 1 (CNR1, Homo sapiens, UniProt P21554)
Sequence of UniProt P21554 (whole entry, looked up): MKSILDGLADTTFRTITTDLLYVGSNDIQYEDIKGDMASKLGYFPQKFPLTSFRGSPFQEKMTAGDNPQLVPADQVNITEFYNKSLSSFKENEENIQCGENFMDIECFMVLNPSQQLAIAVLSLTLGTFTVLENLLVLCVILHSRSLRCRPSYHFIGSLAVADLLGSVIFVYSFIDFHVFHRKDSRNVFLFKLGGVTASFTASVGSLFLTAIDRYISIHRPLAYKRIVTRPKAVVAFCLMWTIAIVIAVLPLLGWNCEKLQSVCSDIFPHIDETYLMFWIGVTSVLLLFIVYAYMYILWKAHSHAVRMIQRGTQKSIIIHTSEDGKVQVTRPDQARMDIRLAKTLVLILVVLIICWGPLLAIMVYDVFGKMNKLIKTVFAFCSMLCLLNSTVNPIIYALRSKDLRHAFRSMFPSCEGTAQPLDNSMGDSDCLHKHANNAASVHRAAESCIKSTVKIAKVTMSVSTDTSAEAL
Ryanodine receptor 1: Ryanodine receptor 1 (Oncorhynchus mykiss, UniProt A0A8C7UX14)
gdpP residues 84-659: gdpP, residues 84-659 (Bacillus subtilis, UniProt P37484)
Sequence of UniProt P18508 (whole entry, unmodified, looked up): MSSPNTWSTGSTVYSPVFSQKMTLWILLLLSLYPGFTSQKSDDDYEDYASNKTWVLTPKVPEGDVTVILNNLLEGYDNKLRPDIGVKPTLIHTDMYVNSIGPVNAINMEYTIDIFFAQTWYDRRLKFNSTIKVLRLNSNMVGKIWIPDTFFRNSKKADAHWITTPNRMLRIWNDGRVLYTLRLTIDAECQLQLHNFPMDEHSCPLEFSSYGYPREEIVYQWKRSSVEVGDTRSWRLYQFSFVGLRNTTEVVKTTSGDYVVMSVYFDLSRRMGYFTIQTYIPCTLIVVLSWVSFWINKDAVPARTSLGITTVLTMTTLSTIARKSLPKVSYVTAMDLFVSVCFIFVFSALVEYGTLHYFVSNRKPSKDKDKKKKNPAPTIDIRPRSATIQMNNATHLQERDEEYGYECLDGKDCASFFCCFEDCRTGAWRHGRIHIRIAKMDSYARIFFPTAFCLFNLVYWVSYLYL
Sequence of UniProt P37484 (84-659, looked up): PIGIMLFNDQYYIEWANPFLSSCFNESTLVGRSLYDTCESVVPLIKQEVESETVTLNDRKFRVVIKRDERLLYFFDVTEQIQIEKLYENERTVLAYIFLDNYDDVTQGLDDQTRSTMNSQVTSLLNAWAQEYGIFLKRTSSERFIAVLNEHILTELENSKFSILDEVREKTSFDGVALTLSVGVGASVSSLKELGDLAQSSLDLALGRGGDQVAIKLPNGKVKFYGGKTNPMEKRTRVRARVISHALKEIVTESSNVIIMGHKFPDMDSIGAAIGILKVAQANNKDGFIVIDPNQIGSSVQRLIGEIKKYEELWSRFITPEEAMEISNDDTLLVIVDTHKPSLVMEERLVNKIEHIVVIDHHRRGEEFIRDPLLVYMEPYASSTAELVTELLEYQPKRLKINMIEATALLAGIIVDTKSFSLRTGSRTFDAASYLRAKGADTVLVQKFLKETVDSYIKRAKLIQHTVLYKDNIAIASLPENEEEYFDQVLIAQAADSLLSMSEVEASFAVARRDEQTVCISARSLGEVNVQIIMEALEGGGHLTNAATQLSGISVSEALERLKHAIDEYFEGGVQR
Sequence of UniProt P20236 (whole entry, looked up): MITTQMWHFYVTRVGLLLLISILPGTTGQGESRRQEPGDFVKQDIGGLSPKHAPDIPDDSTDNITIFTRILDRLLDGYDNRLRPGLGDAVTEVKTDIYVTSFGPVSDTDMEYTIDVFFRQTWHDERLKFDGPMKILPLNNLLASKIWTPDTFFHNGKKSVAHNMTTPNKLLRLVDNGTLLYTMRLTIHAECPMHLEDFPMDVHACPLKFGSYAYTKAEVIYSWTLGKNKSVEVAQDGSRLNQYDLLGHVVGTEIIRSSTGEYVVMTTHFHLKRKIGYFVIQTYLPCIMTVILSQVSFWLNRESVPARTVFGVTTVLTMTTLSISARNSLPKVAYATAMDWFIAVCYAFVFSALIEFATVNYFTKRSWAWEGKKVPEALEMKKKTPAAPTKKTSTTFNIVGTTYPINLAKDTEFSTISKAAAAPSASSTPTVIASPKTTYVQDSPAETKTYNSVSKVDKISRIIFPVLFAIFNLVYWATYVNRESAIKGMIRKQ
Sequence of UniProt Q14790 (whole entry, looked up): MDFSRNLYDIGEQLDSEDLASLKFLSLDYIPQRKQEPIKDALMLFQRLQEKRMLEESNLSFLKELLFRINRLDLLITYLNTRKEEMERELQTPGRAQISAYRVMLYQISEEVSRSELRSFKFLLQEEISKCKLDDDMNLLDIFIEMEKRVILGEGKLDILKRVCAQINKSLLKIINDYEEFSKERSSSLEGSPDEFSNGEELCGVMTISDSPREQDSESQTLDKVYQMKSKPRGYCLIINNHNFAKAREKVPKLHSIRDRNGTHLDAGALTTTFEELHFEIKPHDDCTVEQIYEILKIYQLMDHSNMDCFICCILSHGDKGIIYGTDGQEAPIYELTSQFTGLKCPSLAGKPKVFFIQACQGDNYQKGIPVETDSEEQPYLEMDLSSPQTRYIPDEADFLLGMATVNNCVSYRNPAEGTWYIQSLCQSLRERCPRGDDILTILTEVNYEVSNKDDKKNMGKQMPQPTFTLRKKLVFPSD
Sequence of UniProt Q8NKB0 (whole entry, unmodified, looked up): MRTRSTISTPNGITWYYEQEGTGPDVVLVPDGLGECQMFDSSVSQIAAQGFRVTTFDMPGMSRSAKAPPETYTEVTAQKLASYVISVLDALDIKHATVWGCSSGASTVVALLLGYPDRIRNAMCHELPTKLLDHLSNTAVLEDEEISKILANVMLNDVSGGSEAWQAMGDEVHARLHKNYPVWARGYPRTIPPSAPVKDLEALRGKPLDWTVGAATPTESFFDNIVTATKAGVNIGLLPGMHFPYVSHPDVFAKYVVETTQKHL
Sequence of UniProt P10826 (whole entry, looked up): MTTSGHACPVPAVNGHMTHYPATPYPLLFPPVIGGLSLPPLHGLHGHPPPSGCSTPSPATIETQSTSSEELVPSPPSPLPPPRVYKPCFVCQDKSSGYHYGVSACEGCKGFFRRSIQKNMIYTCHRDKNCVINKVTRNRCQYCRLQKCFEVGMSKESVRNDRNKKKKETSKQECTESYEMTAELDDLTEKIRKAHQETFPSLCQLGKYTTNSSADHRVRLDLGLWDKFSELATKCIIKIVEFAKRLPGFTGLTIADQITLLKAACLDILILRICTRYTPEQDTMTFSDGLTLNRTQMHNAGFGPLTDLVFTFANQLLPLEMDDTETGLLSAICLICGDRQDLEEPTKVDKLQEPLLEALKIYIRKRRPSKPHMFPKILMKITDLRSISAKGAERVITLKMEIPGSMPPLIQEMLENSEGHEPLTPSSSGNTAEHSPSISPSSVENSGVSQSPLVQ
Sequence of UniProt A7XUK7 (whole entry, looked up): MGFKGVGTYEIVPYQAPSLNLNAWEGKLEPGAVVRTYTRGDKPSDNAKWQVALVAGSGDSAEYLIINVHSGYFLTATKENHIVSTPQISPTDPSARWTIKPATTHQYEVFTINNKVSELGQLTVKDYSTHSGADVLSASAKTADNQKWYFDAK
Sequence of UniProt P06276 (whole entry, looked up): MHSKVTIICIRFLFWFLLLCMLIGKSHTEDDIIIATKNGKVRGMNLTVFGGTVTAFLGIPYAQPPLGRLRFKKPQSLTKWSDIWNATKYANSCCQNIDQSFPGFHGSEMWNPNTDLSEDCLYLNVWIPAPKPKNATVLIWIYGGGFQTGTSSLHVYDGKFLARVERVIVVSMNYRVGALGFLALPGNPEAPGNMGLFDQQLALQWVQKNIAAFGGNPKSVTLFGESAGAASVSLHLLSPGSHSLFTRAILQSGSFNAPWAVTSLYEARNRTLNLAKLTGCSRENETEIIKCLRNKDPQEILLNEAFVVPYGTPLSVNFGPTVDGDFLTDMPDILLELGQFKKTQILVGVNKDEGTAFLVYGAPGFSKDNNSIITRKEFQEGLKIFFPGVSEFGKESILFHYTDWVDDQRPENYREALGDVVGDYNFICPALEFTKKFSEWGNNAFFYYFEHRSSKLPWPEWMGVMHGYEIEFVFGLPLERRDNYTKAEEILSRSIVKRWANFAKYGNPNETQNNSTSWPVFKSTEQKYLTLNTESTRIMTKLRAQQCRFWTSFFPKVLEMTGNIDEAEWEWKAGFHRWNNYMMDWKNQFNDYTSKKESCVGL
Sequence of UniProt P04798 (whole entry, looked up): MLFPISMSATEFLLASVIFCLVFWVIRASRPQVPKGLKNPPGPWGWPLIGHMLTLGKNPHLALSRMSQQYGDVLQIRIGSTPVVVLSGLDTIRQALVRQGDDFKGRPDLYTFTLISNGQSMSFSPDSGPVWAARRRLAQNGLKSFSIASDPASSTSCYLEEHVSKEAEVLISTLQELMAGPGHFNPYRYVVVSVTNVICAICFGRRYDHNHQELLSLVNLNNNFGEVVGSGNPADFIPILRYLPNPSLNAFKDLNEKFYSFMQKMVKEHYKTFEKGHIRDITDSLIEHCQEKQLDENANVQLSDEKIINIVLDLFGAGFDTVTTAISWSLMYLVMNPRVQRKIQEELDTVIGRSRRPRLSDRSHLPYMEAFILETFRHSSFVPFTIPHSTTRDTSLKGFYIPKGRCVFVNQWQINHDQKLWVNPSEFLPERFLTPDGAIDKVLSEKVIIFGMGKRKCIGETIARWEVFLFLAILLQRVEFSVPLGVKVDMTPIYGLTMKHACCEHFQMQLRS

The Ke of `CC(C)[C@@H](CN1CCN(c2cccc(O)c2)[C@@H](C)C1)NC(=O)c1ccc(Oc2ccccc2)cc1` is reported as 570 ± 79 nM (OPRD1; antagonist; CHO; together with: DPDPE).
`isotetrandrine` has a retention factor of 13 (Heat shock protein HSP 90-alpha, C-terminal domain (HSP90AA1, Homo sapiens, UniProt P07900); binding, zonal affinity chromatography; pH 7.4, 25 °C).
For `CC1=C(/C=C/C(C)=C/C=C/C(C)=C/C(=O)O)C(C)(C)CCC1`, the induction was 1.6 (Retinoic acid receptor beta (RARB, Homo sapiens, UniProt P10826); reporter gene, agonist, luciferase; HEK-293T; 1 nM).
Under off-target binding, `CN(C)C1(CNC(=O)c2ccc3c(c2)CCN3C(=O)c2ccccc2)CCOCC1` is recorded as “inactive” (GABAA, H1, adenosine, adrenergic, muscarinic receptors; Cerep panel; 1×10-5 M).
`CCCC(C)Sc1nc2c([nH]1)c(=S)n(C)c(=O)n2C` (stereo not drawn) gave a remaining activity of 97% (Glucocorticoid receptor (Nr3c1, Rattus norvegicus, UniProt P06536); reporter gene, antagonist, MMTV-luciferase; T47D/A1-2; 10 µM, 24 h, together with: 5 nM dexamethasone; reference: maximal activity).
For `C=C(CC[C@@H](C)[C@H]1CC[C@H]2C3=C(C(=O)C[C@]12C)[C@@]1(C)CC[C@@H](O)[C@](C)(O)[C@@H]1C[C@@H]3O)C(C)C(=O)O` (stereo partly drawn), the induction was 5.7 (Peroxisome proliferator-activated receptor alpha (Rattus norvegicus, UniProt P37230); reporter gene, agonist; CHO-K1; 200 µM).
`CC(C)(NC(=O)c1nn(Cc2ccc(F)cc2)c2ccccc12)c1cccc(C(N)=O)c1` has an Emax of 24 ± 1% (CNR1; calcium mobilization, agonist; CHO-K1 expressing Gαq16; reference: CP55,940 maximum).
`Ac-QDEVD-pNA (N-acetyl, C-pNA; pNA = O=[N+]([O-])c1ccc(N*)cc1)` gave a kcat/Km of 0.07 ± 0.01 min⁻¹ µM⁻¹ (Caspase-8 (CASP8, Homo sapiens, UniProt Q14790); substrate hydrolysis, substrate, colorimetric; pH 7.5).
`CCCCSS(C)(=O)=O`: GABA current “no effect” (Gabrg2/GABRB2/Gabra1 (Rattus norvegicus, UniProt P18508+P47870+P62813, C260A/C282A/C312A/C319A/C341A/L258C); covalent modifier, two-electrode voltage clamp; Xenopus laevis oocytes; 0.5 mM, labelled without GABA, together with: GABA EC10; reference: before labelling).
The Ke of `Cc1ccc(Oc2ccc(C(=O)N[C@H](CN3CCN(c4cccc(O)c4)[C@@H](C)C3)C(C)C)cc2)cc1` is reported as 188 ± 33 nM (OPRD1; antagonist; CHO; together with: DPDPE).
`NC(=O)c1cccc(C2(NC(=O)c3nn(Cc4ccc(F)cc4)c4ccccc34)CC2)c1` has an Emax of 25 ± 5% (CNR1; calcium mobilization, agonist; CHO-K1 expressing Gαq16; reference: CP55,940 maximum).
For `CC(C)Cc1ccc(NC(=O)Oc2ccc3c(c2)[C@]2(C)CCN[C@@H]2N3)cc1`, “decarbamoylation rate constant k3” read 0.163 ± 0.003 h⁻¹ (Cholinesterase (BCHE, Homo sapiens, UniProt P06276); inhibitor, immobilized enzyme reactor, HPLC-UV; immobilized recombinant human enzyme; 30 °C, after near-complete inhibition).
`Cc1ccc(Nc2ccc3c(c2)C(c2ccccc2F)=NC(C)C(=O)N3)c(C)c1` (stereo not drawn) gave an inhibition of 5% (Alpha-2C adrenergic receptor (ADRA2C, Homo sapiens, UniProt P18825); ligand displacement, radioligand; 10 µM).
The Emax of `NC(=O)CN1CCC[C@H](CNC(=O)c2nn(Cc3ccc(F)cc3)c3ccccc23)C1` is reported as 110 ± 4% (CNR1; calcium mobilization, agonist; CHO-K1 expressing Gαq16; reference: CP55,940 maximum).
`O=C(c1ccc(-n2nc(C(F)(F)F)c3c2CCCC3)cc1)N1CCCC1` — result for binding: “no binding” (receptors, ion channels, transporters; CEREP panel; concentration not given).
`C[C@@H](OP(=O)(O)O)[C@H](N)C(=O)O` gave a substrate hydrolysis of 3.67% (Phospholysine phosphohistidine inorganic pyrophosphate phosphatase (LHPP, Homo sapiens, UniProt Q9H008); substrate, absorbance; 100 µM, 90 min, pH 7.8).
The EC20 of `Clc1ccc(Cl)c(-c2c(Cl)c(Cl)cc(Cl)c2Cl)c1` is reported as 2.21 µM (Ryanodine receptor 1; [3H]ryanodine binding; rainbow trout, skeletal muscle microsomes).
For `O=c1cc(-c2ccccc2)oc2cc(O)ccc12`, the kinact was 0.00192 s⁻¹ (Cytochrome P450 1A1 (CYP1A1, Homo sapiens, UniProt P04798); EROD activity, mechanism-based inhibitor).
For `anthraquinone-neomycin`, the binding enthalpy was -6.4 ± 0.1 kcal/mol (poly(dA)•2poly(dT) triplex DNA; isothermal titration calorimetry; concentration not given, pH 5.5, 20 °C, KCl 150 mM).
With `Clc1ccc(Cl)c(-c2cc(Cl)ccc2Cl)c1` the Emax was 250 ± 7.88% (Ryanodine receptor 1; [3H]ryanodine binding; rainbow trout, skeletal muscle microsomes; up to 20 µM; reference: DMSO).
`C[C@H]1CNCCc2ccc(Cl)cc21` has an AUC extrapolated of 7.14 ± 0.75% (male Sprague-Dawley rat, plasma; subcutaneous, pimavanserin 0.5 + lorcaserin 0.5 mg/kg, pimavanserin 15 min earlier).
`NC(=O)[C@@H]1CCCN1C(=O)C1(NC(=O)c2nn(Cc3ccc(F)cc3)c3ccccc23)CC1` has an Emax of 89 ± 3% (CNR1; calcium mobilization, agonist; CHO-K1 expressing Gαq16; reference: CP55,940 maximum).
With `Nc1ncnc2c1nc(N1CCCCC1)n2[C@@H]1O[C@@H]2COP(O)(=S)O[C@@H]2C1O` (stereo partly drawn) the selectivity ratio was 1.7 (cAMP-dependent protein kinase type II-beta regulatory subunit, holoenzyme with catalytic subunit (Prkar2b, Rattus norvegicus, UniProt P12369, S112A); PKA holoenzyme activation, activator, fluorescence anisotropy; reference: RIIβ over RIα, higher = RIIβ-selective).
`CN[C@@](C)(C[18F])C(=O)O` has a tracer uptake of 2 %ID/g (MDA-MB-468 tumour model; host not given, lung; 30 min, tumour-bearing).
`Nc1nc2c(ncn2[C@@H]2O[C@@H]3COP(=O)(O)O[C@H]4[C@@H](O)[C@H](n5cnc6c(=O)[nH]c(N)nc65)O[C@@H]4COP(=O)(O)O[C@H]3[C@H]2O)c(=O)[nH]1` gave a degradation rate of 0.8 ± 0.1 mol/min/mol enzyme (gdpP residues 84-659; substrate, HPLC; 100 µM, 37 °C, upper limit if undegraded 24 h, together with: enzyme 1 µM).
`O=C(Cc1ccc(F)cc1)NC1CCOC1=O` (stereo not drawn) has an activation of 71% (HTH-type quorum-sensing regulator RhlR (rhlR, Pseudomonas aeruginosa, UniProt P54292); reporter gene, agonist; Escherichia coli reporter strain; 100 µM; reference: BHL 900 µM).
`C=C1[C@@H](C)[C@H]2[C@H](Cc3ccccc3)NC(=O)[C@]23[C@H](OC(C)=O)/C=C/[C@@](C)(O)C(=O)[C@@H](C)C/C=C/[C@H]3[C@@H]1O` — result for “bound plasminogen fluorescence”: 291 ± 40 MFI (integrin alphaM beta2 (human); ligand binding, inhibitor, flow cytometry; human neutrophils; concentration not given, 1 h, 37 °C, integrin clustering inhibitor, together with: Alexa 488-labelled plasminogen; reference: no inhibitor, lower means less binding).
With `Nc1ncnc2c1ncn2[C@@H]1O[C@H](COP(=O)(O)OP(=O)(O)OP(=O)(O)O)[C@@H](O)[C@H]1O` the ΔTm was -0.5 °C (Lysine--tRNA ligase (Plasmodium falciparum, UniProt Q8IDJ8); thermal shift; 40 µM, no lysine).
For `CC[C@H](C)[C@H](NC(=O)[C@H](C)NC(=O)[C@H](CCC(=O)O)NC(C)=O)C(=O)N[C@H]1CCCC=CCCC[C@@H](C(=O)N[C@@H](CCC(N)=O)C(=O)N[C@@H](CC(C)C)C(=O)N[C@@H](CC(C)C)C(=O)N[C@@H](Cc2ccccc2)C(=O)N[C@H](C(=O)N[C@@H](Cc2c[nH]cn2)C(=O)N[C@@H](Cc2ccccc2)C(=O)N[C@@H](CCCNC(=N)N)C(=O)N[C@H](C(=O)NCC(=O)N[C@@H](CCCNC(=N)N)C(=O)N[C@@H](CCCNC(=N)N)C(=O)N[C@@H](CCCNC(=N)N)C(=O)N[C@@H](CCCNC(=N)N)C(=O)N[C@@H](CCCNC(=N)N)C(=O)N[C@@H](CCCNC(=N)N)C(=O)N[C@@H](CCCNC(=N)N)C(=O)N[C@@H](CCCNC(=N)N)C(N)=O)[C@@H](C)CC)[C@@H](C)CC)NC(=O)[C@H](CC(C)C)NC(=O)[C@H]([C@@H](C)CC)NC(=O)[C@H](CCCNC(=N)N)NC1=O`, “minimum DNA retardation concentration” read 4 µM (HIV-1 integrase and DNA substrate; DNA binding, gel retardation; 2 h, 37 °C, together with: radiolabelled oligonucleotide DNA).
For `Nc1ncnc2c1ncn2[C@H]1C[C@@H]2OP(=O)(O)OC[C@H]3O[C@@H](n4cnc5c(N)ncnc54)C[C@@H]3OP(=O)(O)OC[C@H]2O1`, the degradation rate was no more than 0.001 mol/min/mol enzyme (gdpP residues 84-659; substrate, HPLC; 100 µM, 37 °C, upper limit if undegraded 24 h, together with: enzyme 1 µM).
With `DNRDGNVYYF` the Vmax was 2 ± 0.1 s⁻¹ per enzyme (Serine endoprotease DegS (degS, Escherichia coli, UniProt P0AEE3, D320A/H198P); protease activity; peptide; 30 µM, 23 °C, 0.1 µM enzyme trimer, together with: saturating OMP peptide).
`CC(=O)N[C@@H]1[C@@H](O)[C@H](O[C@@H]2O[C@H](CO)[C@@H](O[C@@H]3O[C@H](CO[C@H]4O[C@H](CO)[C@@H](O)[C@H](O)[C@@H]4O)[C@@H](O)[C@H](O[C@H]4O[C@H](CO)[C@@H](O)[C@H](O)[C@@H]4O[C@@H]4O[C@H](CO)[C@@H](O[C@@H]5O[C@H](CO)[C@H](O)[C@H](O)[C@H]5O)[C@H](O)[C@H]4NC(C)=O)[C@@H]3O)[C@H](O)[C@H]2NC(C)=O)[C@@H](CO)O[C@H]1NC(=O)C[C@H](N)C(=O)O`: “lectin binding fluorescence” 11500 ± 555 RFU (Agglutinin (Sclerotinia sclerotiorum, UniProt A7XUK7); glycan array; concentration not given, pH 7.4, spacer Sp12).
The Emax of `Clc1ccc(-c2cc(Cl)c(Cl)cc2Cl)c(Cl)c1` is reported as 136 ± 5.66% (Ryanodine receptor 1; [3H]ryanodine binding; rainbow trout, skeletal muscle microsomes; up to 20 µM; reference: DMSO).
With `C[C@H]1CCCC(=O)CCC/C=C/c2cc(O)cc(O)c2C(=O)O1` the Km was 33.8 ± 0.69 mM (zhd101 (Clonostachys rosea, UniProt Q8NKB0, D133K/D157K/E171K); substrate, HPLC; 10 min, pH 5.5, 37 °C, 1% acetonitrile).
The approximate KD of `BIM` is reported as roughly 10 nM (Bcl-2-like protein 1 (BCL2L1, Homo sapiens, UniProt Q07817); bacterial surface display flow cytometry; value is labelling concentration).
For `C#Cc1cccc2c1[nH]c1cnc(C(=O)OC(C)(C)C)cc12`, the selectivity ratio was 10 to 100 fold (Gabrg2/Gabra3, with β3 subunit (Rattus norvegicus, UniProt P18508+P20236); GABA current modulation; Xenopus oocytes; 10 to 100 nM; reference: α3 over α1 GABAA).

A few entries again:
`O=C(Cc1ccc(F)cc1)NC1CCOC1=O` (stereo not drawn) has an activation of 71% (HTH-type quorum-sensing regulator RhlR (rhlR, Pseudomonas aeruginosa, UniProt P54292); reporter gene, agonist; Escherichia coli reporter strain; 100 µM; reference: BHL 900 µM).
With `C[C@H]1CCCC(=O)CCC/C=C/c2cc(O)cc(O)c2C(=O)O1` the Km was 33.8 ± 0.69 mM (zhd101 (Clonostachys rosea, UniProt Q8NKB0, D133K/D157K/E171K); substrate, HPLC; 10 min, pH 5.5, 37 °C, 1% acetonitrile).
